Assay results gathered from unrelated publications.
Lines come from different studies, so protocols differ. Values joined by “and” are separate records of one study, mostly repeats; a detail may differ. Numbers after ± are the reported error.
T1: dsRNA; chain GCCUCGCUGCCGUCGCCA; chain UGGCGACGGCAGCGAGGC

| Structure (SMILES) | target | test | test system | conditions | scale | quantity | value |
| --- | --- | --- | --- | --- | --- | --- | --- |
| COc1ccccc1-c1n[nH]c2nc(N[C@H]3CC[C@H](NS(=O)(=O)CCCOCCOCCNC(=O)OC(C)(C)C)CC3)ncc12 | Leishmania donovani MPK (LinJ.36.6760/LinJ.30.0370) | resin binding competition | promastigote lysate | 10 µM | baseline: DMSO | log2 SILAC ratio heavy/light | 1.96 |
| CCCC[C@@H]1NC(=O)[C@H](Cc2ccc(O)cc2)NC(=O)[C@@H]2CCCN2C(=O)[C@H](CC(=O)O)NC(=O)[C@H](C)NC(=O)[C@H](Cc2ccccc2)NC(=O)[C@@H]2CSCCC(=O)N3CN(CN(C3)C(=O)CCSC[C@H](NC(C)=O)C(=O)N[C@@H](CC(C)(C)C)C(=O)N3CCC[C@H]3C(=O)N[C@@H](CCC(=O)O)C(=O)N[C@H](CCCCNC(=O)CCc3cn(CCOCCOCCOCCOCCOCCC(=O)N[C@H]4CSCCC(=O)N5CN6CN(C5)C(=O)CCSC[C@H](NC(=O)[C@@H](CC(=O)O)NC(=O)[C@H](Cc5cccc7ccccc57)NC(=O)[C@@H]5CCCN5C4=O)C(=O)N[C@@H](CCSC)C(=O)N[C@@H](CCCCNC(=N)N)C(=O)N[C@@H](CC(=O)O)C(=O)N[C@@H](Cc4c[nH]c5ccccc45)C(=O)N[C@@H](CO)C(=O)N[C@@H]([C@@H](C)O)C(=O)N4CCC[C@H]4C(=O)N4C[C@H](O)C[C@H]4C(=O)N[C@@H](Cc4c[nH]c5ccccc45)C(=O)N[C@H](C(N)=O)CSCCC6=O)nn3)C(=O)N3CCC[C@H]3C(=O)N[C@@H](Cc3ccc(O)cc3)C(=O)N2)C(=O)CCSCCNC1=O | Tumor necrosis factor receptor superfamily member 9/Nectin-4 (Homo sapiens, UniProt Q07011+Q96NY8) | reporter gene, agonist | HT-1376 coculture with reporter cells | – | baseline: background | Emax | 37 fold |
| c1cncc(OC[C@@H]2CN(CCN3CCc4ccccc43)CCO2)c1 | HTR5A (Homo sapiens, UniProt P47898) | radioligand binding | – | concentration not given, together with: [3H]LSD | – | inhibition | 3.2% |
| CCN1CCC[C@H]1CNC(=O)c1c(O)c(Cl)cc(Cl)c1OC | Probable G-protein coupled receptor 27 (Homo sapiens, UniProt Q9NS67) | β-arrestin recruitment, TANGO luminescence, item: GPR27 | – | concentration not given | baseline: basal luminescence | log2 fold change | -0.203 |
| C[C@H]1O[C@@H](O[C@H]2CC[C@@]3(C)[C@@H](CC[C@]4(C)[C@@H]3C=CC3=C5CC(C)(C)CC[C@]5(CO)[C@@H](O)C[C@]34C)[C@]2(C)CO)[C@H](O)[C@@H](O[C@@H]2O[C@H](CO)[C@@H](O)[C@H](O)[C@H]2O)[C@H]1O | SIRT1 (Homo sapiens, UniProt Q96EB6) | binding, microscale thermophoresis | – | 122 nM | – | MST normalised fluorescence | 884 a.u. |
| O=C(O)c1ccccc1Nc1cccc(C(F)(F)F)c1 | TAS2R14 (Homo sapiens, UniProt Q9NYV8) | G-protein dissociation, TRUPATH gustducin BRET | – | 3 µM, wild-type receptor, unit not given | baseline: vehicle | ΔBRET | -0.0123 and -0.00619 and 0.031 and -0.00455 and -0.0242 and 0.00424 and -0.00254 |
| CCO[C@H](COc1ccc(C(F)(F)F)cc1)CSc1ccc(OCC(=O)O)c(C)c1 | PPARD (Homo sapiens, UniProt Q03181) | reporter gene, agonist, luciferase reporter | – | – | baseline: maximal control activation | Emax | 90% |
| NC[C@H]1O[C@H](O[C@H]2[C@H](O)[C@@H](O[C@H]3O[C@H](CO)[C@@H](O)[C@H](N)[C@H]3O)[C@H](N)C[C@@H]2N)[C@H](O)[C@@H](O)[C@@H]1O | T1, dsRNA | native PAGE gel shift | – | 50 mM, room temperature | – | binding | binds weakly |
| c1ccc(C(NCc2cccnc2)(c2ccccc2)c2ccccc2)cc1 | KCNQ1 (Homo sapiens, UniProt P51787) | whole-cell patch clamp | – | 300 pM | – | time to peak | 68 ± 6 ms |
| Nc1ncnc2c1ncn2[C@@H]1O[C@H](COP(=O)(O)CP(=O)(O)OP(=O)(O)O)[C@@H](O)[C@H]1O | P2X purinoceptor 1 (P2RX1, Homo sapiens, UniProt P51575, E122A) | saturation binding | – | 79 nM | – | specific binding | 560 corrected cpm and 580 corrected cpm and 820 corrected cpm |
| Nc1ncnc2c1ncn2[C@@H]1O[C@H](COP(=O)(O)OP(=O)(O)O)[C@@H](O)[C@H]1O | GUK1 (Homo sapiens, UniProt Q16774) | ITC | – | molar ratio 0.6998 | – | ΔH | -2.03 kcal/mol |
| O=c1ccn([C@H]2C[C@H](O)[C@@H](COP(=O)(O)OP(=O)(O)OP(=O)(O)O)O2)c(=O)[nH]1 | DNA-directed RNA polymerase subunit beta' / DNA-directed RNA polymerase subunit beta (rpoC/rpoB, Escherichia coli, UniProt P0A8T7+P0A8V2) | RNA extension, denaturing gel | Escherichia coli, elongation complex, 6-MI template | 5 µM, 10 min, 25 °C | – | incorporation efficiency | 85% |
